# Earlier results as cited in several papers.
# Compare with care: the assays were run in different laboratories. ± marks the error that the study gave.
Substance,system,setting,how to read,endpoint,result
Cc1nc(Nc2ncc(C(=O)Nc3c(C)cccc3Cl)s2)cc(N2CCN(CCO)CC2)n1,humans,"oral, 50 mg single dose, with: famotidine 40 mg evening, 10 h before",relative to: without famotidine,AUC reduction,~60%
octreotide,human,"oral, 20 mg capsule",relative to: fasting,AUC reduction by high-fat meal,~90%
CC(=O)O[C@H]1C(=O)[C@@]2(C)[C@H]([C@H](OC(=O)c3ccccc3)[C@]3(O)C[C@H](OC(=O)[C@H](O)[C@@H](NC(=O)c4ccccc4)c4ccccc4)C(C)=C1C3(C)C)[C@]1(OC(C)=O)CO[C@@H]1C[C@@H]2O,"human, Kaposi sarcoma, HIV","100 mg/m², no protease inhibitors",,AUC,2.9 ± 0.7 µM·h
CC[C@@H]1CN(C(=O)NCC(F)(F)F)C[C@@H]1c1cnc2cnc3[nH]ccc3n12,human,"dose not given, CYP3A induction, with: rifampin multiple doses",relative to: without rifampin,AUC decrease,60%
CS(=O)(=O)CCNCc1ccc(-c2ccc3ncnc(Nc4ccc(OCc5cccc(F)c5)c(Cl)c4)c3c2)o1,"human, moderate hepatic impairment","oral, 100 mg",relative to: healthy controls,AUC increase,~56%
CO[C@H]1C[C@@H]2CC[C@@H](C)[C@@](O)(O2)C(=O)C(=O)N2CCCC[C@H]2C(=O)O[C@H]([C@H](C)C[C@@H]2CC[C@@H](OCCO)[C@H](OC)C2)CC(=O)[C@H](C)/C=C(\C)[C@@H](O)[C@@H](OC)C(=O)[C@H](C)C[C@H](C)/C=C/C=C/C=C/1C,human,"2 mg single dose, with: ketoconazole 200 mg twice daily",relative to: with over without ketoconazole,AUC ratio,15 fold
C[C@@H](Oc1cc(-c2cnn(C3CCNCC3)c2)cnc1N)c1c(Cl)ccc(F)c1Cl,healthy human volunteers,"single dose, with: ketoconazole co-administration",relative to: without ketoconazole,AUC increase,220%
COc1cccc(CCc2ccccc2OCC(CN(C)C)OC(=O)CCC(=O)O)c1 (racemic),human,"oral, 400 mg single dose as hydrochloride, geometric mean",,AUC,2210 ng·h/mL
CO[C@H]1C[C@@H]2CC[C@@H](C)[C@@](O)(O2)C(=O)C(=O)N2CCCC[C@H]2C(=O)O[C@H]([C@H](C)C[C@@H]2CC[C@@H](OC(=O)C(C)(CO)CO)[C@H](OC)C2)CC(=O)[C@H](C)/C=C(\C)[C@@H](O)[C@@H](OC)C(=O)[C@H](C)C[C@H](C)/C=C/C=C/C=C/1C,human,"intravenous, 25 mg weekly",,AUC,3810 ng·h/mL
O=C(O)C[C@H](O)C[C@H](O)/C=C/c1c(C2CC2)nc2ccccc2c1-c1ccc(F)cc1,human,concentration not given,relative to: OATP*15 heterozygous over non-carriers,AUC ratio,1.4 fold
O=C(c1cc(Cc2n[nH]c(=O)c3ccccc23)ccc1F)N1CCN(C(=O)C2CC2)CC1,human,"oral, 400 mg twice daily, multiple dose, pooled trials",,AUC at steady state,55200 ng·h/mL

# For quick reference, copied from above:
Substance,system,setting,how to read,endpoint,result
octreotide,human,"oral, 20 mg capsule",relative to: fasting,AUC reduction by high-fat meal,~90%
